Assay results gathered from unrelated publications.
Each line is one published result; not all experiments were run side by side. Values joined by “and” are separate records of one study, mostly repeats; a detail may differ. ± gives the spread as reported. Square brackets hold non-standard residues; d marks the D form. * marks the point of attachment.
HapB/HapC/HapE/HapX HapX 24-158: HapB/HapC/HapE/HapX HapX 24-158 (Aspergillus fumigatus)
B1: acetylcholinesterase; chain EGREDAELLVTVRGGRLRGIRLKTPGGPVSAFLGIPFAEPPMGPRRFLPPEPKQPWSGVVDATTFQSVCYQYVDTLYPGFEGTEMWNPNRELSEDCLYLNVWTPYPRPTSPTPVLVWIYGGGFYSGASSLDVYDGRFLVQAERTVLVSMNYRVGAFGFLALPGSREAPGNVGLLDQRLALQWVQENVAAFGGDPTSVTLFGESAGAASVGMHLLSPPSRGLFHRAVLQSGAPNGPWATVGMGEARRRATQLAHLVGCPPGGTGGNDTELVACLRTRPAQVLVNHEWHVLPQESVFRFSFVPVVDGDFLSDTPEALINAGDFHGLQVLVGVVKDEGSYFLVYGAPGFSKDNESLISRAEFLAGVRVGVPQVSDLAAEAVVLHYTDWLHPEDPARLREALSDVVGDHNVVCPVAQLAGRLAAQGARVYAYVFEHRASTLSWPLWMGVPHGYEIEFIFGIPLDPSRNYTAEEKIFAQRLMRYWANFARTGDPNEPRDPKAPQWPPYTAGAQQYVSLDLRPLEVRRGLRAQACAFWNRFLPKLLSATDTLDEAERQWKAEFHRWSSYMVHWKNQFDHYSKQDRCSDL
B2: acrA (Escherichia coli, UniProt P0AE06); N-terminal lipid at C25; chain CDDKQAQQGGQQMPAVGVVTVKTEPLQITTELPGRTSAYRIAEVRPQVSGIILKRNFKEGSDIEAGVSLYQIDPATYQATYDSAKGDLAKAQAAANIAQLTVNRYQKLLGTQYISKQEYDQALADAQQANAAVTAAKAAVETARINLAYTKVTSPISGRIGKSNVTEGALVQNGQATALATVQQLDPIYVDVTQSSNDFLRLKQELANGTLKQENGKAKVSLITSDGIKFPQDGTLEFSDVTVDQTTGSITLRAIFPNPDHTLLPGMFVRARLEEGLNPNAILVPQQGVTRTPRGDATVLVVGADDKVETRPIVASQAIGDKWLVTEGLKAGDRVVISGLQKVRPGVQVKAQEVTADNNQQAASGAQPEQSKS
Sequence of UniProt P31224 (whole entry, unmodified, looked up): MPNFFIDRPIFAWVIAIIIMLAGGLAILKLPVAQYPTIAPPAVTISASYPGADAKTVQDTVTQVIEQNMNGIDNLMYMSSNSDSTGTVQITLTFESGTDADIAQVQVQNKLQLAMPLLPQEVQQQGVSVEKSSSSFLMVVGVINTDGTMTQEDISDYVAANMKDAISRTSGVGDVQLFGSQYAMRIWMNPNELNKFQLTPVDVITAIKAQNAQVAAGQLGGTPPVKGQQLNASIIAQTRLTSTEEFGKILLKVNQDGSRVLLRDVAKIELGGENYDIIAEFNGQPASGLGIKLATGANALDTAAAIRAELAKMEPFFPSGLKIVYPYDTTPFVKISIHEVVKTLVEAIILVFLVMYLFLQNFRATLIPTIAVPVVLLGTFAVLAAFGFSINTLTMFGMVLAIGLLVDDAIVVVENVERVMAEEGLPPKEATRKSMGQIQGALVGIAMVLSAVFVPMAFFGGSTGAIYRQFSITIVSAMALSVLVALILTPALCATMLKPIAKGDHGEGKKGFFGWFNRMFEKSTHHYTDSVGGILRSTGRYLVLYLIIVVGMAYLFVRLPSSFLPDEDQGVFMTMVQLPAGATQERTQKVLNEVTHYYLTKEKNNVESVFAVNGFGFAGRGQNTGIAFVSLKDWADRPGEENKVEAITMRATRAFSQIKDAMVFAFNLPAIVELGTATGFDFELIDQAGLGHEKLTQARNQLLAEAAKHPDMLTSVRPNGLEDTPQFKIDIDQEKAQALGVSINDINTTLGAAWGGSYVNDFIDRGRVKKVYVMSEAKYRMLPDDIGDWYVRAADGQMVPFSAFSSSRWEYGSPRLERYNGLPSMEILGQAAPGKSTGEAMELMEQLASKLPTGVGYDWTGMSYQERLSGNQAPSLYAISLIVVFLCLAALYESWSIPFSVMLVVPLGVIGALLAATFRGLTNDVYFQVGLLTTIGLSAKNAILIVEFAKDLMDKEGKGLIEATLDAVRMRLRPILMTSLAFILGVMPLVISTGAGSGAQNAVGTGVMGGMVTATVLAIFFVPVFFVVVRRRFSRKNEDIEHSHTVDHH

B1 (acetylcholinesterase)
complex formation (amyloid oligomers; ELISA, A11 capture; A549 conditioned medium; baseline: mouse IgG): binds

Cc1ccccc1NC(=O)Nc1ccc(CC(=O)N[C@@H](CCCCNC(=O)/C=C/c2cccnc2)C(=O)N[C@@H](CCCC(=O)O)C(=O)NC2(C(=O)N[C@@H](CCCCNC(=O)CCOCCOCCOCCOCCNC(=O)CN3CCCN4CCN(CCCN(CP(=O)(O)O)CC4)CC3)C(N)=O)CCCCC2)cc1 [copper-64 labelled]
internalized tracer (VLA-4; B16-F10; 0.44 MBq per well, 15 min, 37 °C, corrected for blocked uptake): 9.2 ± 1.4 fmol/mg

Cl.Cn1sccc1=O
maximal peptide depletion (cysteine peptide Ac-RFAACAA-COOH; DPRA RapidFire-MS/MS; 24 h, pH 7.5, added: 5.0 µM cysteine peptide): -102%

Oc1c(Cl)c(Cl)c(Cl)c(Cl)c1Cl
inhibition (aequorin, Aequorea victoria; bioluminescence, inhibitor; 1.0×100 µM, added: coelenterazine; baseline: no inhibitor): 34%

IWWHIAKFG
recovery yield (adeno-associated virus 2; capsid binding, bind-and-elute chromatography; peptide; peptide ligand resin, MgCl2 elution): 54.9%

GCTGAGCCGAATGAAAGTTGCCTAATTACTAAGGTGT (dsDNA)
Kd (HapB/HapC/HapE/HapX HapX 24-158; SPR; double-stranded DNA, one strand shown; HapX on preformed CBC:DNA): < 0.1 µM

CC(C)=CCCC(C)=CCCC(C)=CC=O
peptide depletion span (cysteine peptide Ac-RFAACAA-COOH; RapidFire MS DPRA; lowest to highest concentration): -17.4%

C[C@H](NC(=O)Cc1cc(F)cc(F)c1)C(=O)N[C@H]1N=C(c2ccccc2)c2ccccc2N(C)C1=O
ISF Aβ40 reduction (γ-secretase; inhibitor, microdialysis; J20 hAPP transgenic mice, 24 months, hippocampal interstitial fluid; intraperitoneal, 3 mg/kg, first 3 h; baseline: pre-injection level): ~60%

CO/N=C(\C(=O)N[C@@H]1C(=O)N2C(C(=O)O)=CCS[C@H]12)c1csc(N)n1
acylation rate constant k2/Ks (Neisseria gonorrhoeae PBP2 H041; 1 h, pH 8.0, room temperature, added: Bocillin-FL competitor): 1000 ± 210 M⁻¹ s⁻¹

O=c1c2ccccc2[se]n1-c1ccccc1
inhibition (trypanothione synthetase (Trypanosoma brucei); enzyme activity, inhibitor; 5 µM, 1 h preincubation, time-dependent): 0% and -0.7%

O=[N+]([O-])c1ccc(O)c2ncccc12
concentration of maximal inhibition (SIRT1, human; immunoblot, measured: acetyl-p53; HUVEC; biphasic response): 5 µM

melittin
heat capacity change (membrane partitioning, CD van't Hoff analysis; POPC/POPG LUVs 75:25%; concentration not given, 5 to 60 °C): -0.35 kcal/mol/K

Cc1cc(O)c(C(=O)N[C@@H](C(=O)N[C@@H]2C(=O)N3C(C(=O)O)=C(CSc4nnnn4C)CS[C@H]23)c2ccc(O)cc2)cn1
acylation rate constant k2/Ks (Neisseria gonorrhoeae PBP2 H041; 1 h, pH 8.0, room temperature, added: Bocillin-FL competitor): 120 ± 14 M⁻¹ s⁻¹

CC[C@H](C)[C@H](NC(=O)[C@H](CCCNC(=N)N)NC(=O)[C@H](C)NC(=O)[C@H](Cc1c[nH]c2ccccc12)NC(=O)[C@H](CO)NC(=O)CNC(=O)[C@H](CC(C)C)NC(=O)[C@H](Cc1ccccc1)NC(=O)[C@H](CCCNC(=N)N)NC(=O)[C@H](CCCNC(=N)N)NC(=O)[C@H](Cc1ccccc1)NC(=O)CNC(C)=O)C(=O)N[C@@H](Cc1ccc(O)cc1)C(=O)N[C@@H](CCCNC(=N)N)C(=O)N[C@@H](C)C(=O)N[C@@H](Cc1ccccc1)C(=O)N[C@H](C(=O)NCC(N)=O)C(C)C
dissociation rate constant (LPS; surface plasmon resonance; Escherichia coli, 026:B6; 25 °C): 0.003 s⁻¹

AGATGGACGAACCAGTGAGTGTTGATTATTAAGGTACCCC (dsDNA)
Kd (HapB/HapC/HapE/HapX HapX 24-158; SPR; double-stranded DNA, one strand shown; HapX on preformed CBC:DNA): < 0.1 µM

B2 (acrA)
k-2 (acrB C493S/C887S/S1043C (Escherichia coli, UniProt P31224); SPR; two-state model, reverse second step): 0.00111 s⁻¹

(−)-discorhabdin H
effective concentration (HIF-1α; HRE reporter gene, inhibitor; LNCaP; 18 h, 1% O2, nontoxic concentration): 0.1 µM

{FITC}-GFID[pS]D[pT]DVEEE-NH2 (peptide; N-terminal FITC, pS5, pT7, C-terminal amide; FITC = O=C1OC2(c3ccc(O)cc3Oc3cc(O)ccc32)c2ccc(NC(=S)*)cc21; pS = N[C@@H](COP(=O)(O)O)C(=O)O; pT = C[C@@H](OP(=O)(O)O)[C@H](N)C(=O)O)
Kd (TOPBP1 641-746 A707D (Homo sapiens, UniProt Q92547); fluorescence polarisation; peptide; pH 7.5, NaCl 150 mM): 120 ± 10 µM

Some of these lines once more:
B2 (acrA)
k-2 (acrB C493S/C887S/S1043C (Escherichia coli, UniProt P31224); SPR; two-state model, reverse second step): 0.00111 s⁻¹
